Measurements gathered from unrelated publications.
Lines come from different studies, so protocols differ. “And” joins repeats or separate records; there may be more than shown.
BRAF V600E: Serine/threonine-protein kinase B-raf (BRAF, Homo sapiens, UniProt P15056, V600E)
Chain of UniProt P15056 (whole entry, unmodified, looked up): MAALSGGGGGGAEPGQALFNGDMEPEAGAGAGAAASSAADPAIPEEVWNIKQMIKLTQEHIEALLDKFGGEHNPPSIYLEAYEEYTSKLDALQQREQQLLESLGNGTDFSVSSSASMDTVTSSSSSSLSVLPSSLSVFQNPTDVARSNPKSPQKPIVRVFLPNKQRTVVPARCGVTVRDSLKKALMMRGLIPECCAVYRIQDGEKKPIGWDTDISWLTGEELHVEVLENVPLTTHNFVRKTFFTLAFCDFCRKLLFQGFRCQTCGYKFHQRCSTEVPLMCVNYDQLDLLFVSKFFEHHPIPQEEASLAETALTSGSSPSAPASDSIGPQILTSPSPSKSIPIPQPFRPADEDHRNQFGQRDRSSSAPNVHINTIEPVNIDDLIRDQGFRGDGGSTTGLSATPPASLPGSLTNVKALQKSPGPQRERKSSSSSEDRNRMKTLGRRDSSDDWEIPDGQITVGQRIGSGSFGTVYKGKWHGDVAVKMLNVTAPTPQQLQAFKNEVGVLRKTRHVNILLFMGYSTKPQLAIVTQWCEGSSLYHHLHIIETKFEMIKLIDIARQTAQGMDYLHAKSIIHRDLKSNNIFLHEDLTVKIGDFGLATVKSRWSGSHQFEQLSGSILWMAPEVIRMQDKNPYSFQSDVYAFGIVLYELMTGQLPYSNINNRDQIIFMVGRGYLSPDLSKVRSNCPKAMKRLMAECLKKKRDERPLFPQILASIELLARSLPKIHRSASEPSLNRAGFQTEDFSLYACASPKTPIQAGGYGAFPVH
BRAF: Serine/threonine-protein kinase B-raf (BRAF, Homo sapiens, UniProt P15056)

`CN1CCN(Cc2ccc(NC(=O)c3cccc(C#Cc4cnc(N)c5ncccc45)c3)cc2C(F)(F)F)CC1` gave a remaining binding of 0.1% (BRAF V600E; cell-free assay, competition with immobilised ligand; 0.5 µM).
`O=C(Cc1ccc(OCc2ccccc2)cc1)NC1(C(=O)O)CCN(C(=O)c2ccc(-c3cccc(Cl)c3)cc2)CC1`: “activity vs control” 118% (BRAF; enzyme activity, inhibitor; 10 µM).
With `O=C(Nc1ccc(Oc2ncnc3[nH]cc(-c4ccccc4)c23)c(F)c1)c1c2n(n(-c3cc(F)ccc3F)c1=O)CCCC2` the inhibition was 12% (BRAF; enzyme activity, inhibitor; 0.5 µM).
For `Cc1cccc(O[C@H]2CCC[C@@H](C(C)CNCc3ccncc3)C2)c1` (relative stereo), the inhibition was 1% (BRAF; cell-free assay; 1 µM).
`Nc1ncc(-c2cc(-c3cnn(CC(F)(F)F)c3)ncc2F)nc1C(=O)NC1CNCC(F)C1` (centres unmarked) has a remaining activity of 93.2% (BRAF; enzyme activity; 1 µM; reference: DMSO control).
`COc1ccc(C(=O)/C=C/c2ccccc2-c2c[nH]c3ccc(C#N)cc23)c(O)c1` has an inhibition of -1% (BRAF; enzyme activity, inhibitor; 20 µM).
With `COc1ccc(NC(=O)Nc2ccc3c(c2)C(=O)N(C(C)CO)CC(C)C(CN(C)Cc2ccc4c(c2)OCO4)O3)cc1` (centres unmarked) the remaining activity was 98% (BRAF; kinase activity, KinaseProfiler; 0.03 µM, species human; reference: control).
With `C=C1CCCCCCCCCC(CO)C1=O` (centres unmarked) the remaining signal was 76% (BRAF V600E; cell-free assay; 10 µM).
`NC(=O)C[C@H]1CCc2sc3ncnc(O[C@H]4CC[C@H](N5CCOCC5)CC4)c3c21` gave an inhibition of 7% (BRAF; enzyme activity, inhibitor; 10 µM).
The inhibition of `CCn1cc(C(=O)O)c(=O)c2c(N)c(F)c(NC3CCCCC3)cc21` is reported as -11.1% (BRAF; kinase activity; 0.1 µM, with: ATP at Km).
`C[C@H]1CN(C(=O)c2cn(-c3ccnc(N)n3)c3cc(C#CC4(O)CCCCC4)ccc23)CCN1` gave an inhibition of -2% (BRAF; enzyme activity, inhibitor, FRET; 1 µM).
`CS(=O)(=O)Nc1cccc(-c2csc3cnc(Nc4ccc(N5CCN(CCCCCOc6cccc7c6C(=O)N(C6CCC(=O)NC6=O)C7=O)CC5)cc4)nc23)c1` (centres unmarked) has an inhibition of -22.3% (BRAF; probe labelling, inhibitor, KiNativ chemoproteomics; MOLT-4; 1 µM).
With `C=CC(=O)Nc1cccc(-c2cnc3[nH]cc(C(=O)NC(C)(C)C)c3n2)c1` the inhibition was -4% and -3% (BRAF; kinase activity; 0.1 µM).
The remaining activity of `COCC12C(=O)NC3C4(C(OC)CC1O)C1CC5(O)C(OC)C(O)C(OC(C)=O)(C1C5OC(=O)c1ccccc1)C3(O)C(OC)C24` (centres unmarked) is reported as 104% and 95% (BRAF V600E; kinase activity, inhibitor, ProQinase kinase profiling; 25 µM; reference: control).

Some of these lines once more:
`CN1CCN(Cc2ccc(NC(=O)c3cccc(C#Cc4cnc(N)c5ncccc45)c3)cc2C(F)(F)F)CC1` gave a remaining binding of 0.1% (BRAF V600E; cell-free assay, competition with immobilised ligand; 0.5 µM).
